Experimental data from different studies.
A part holds a random share of what one study measured. Positions count from the first letter of the parent shown.
Sequence of UniProt Q01959 (whole entry, looked up): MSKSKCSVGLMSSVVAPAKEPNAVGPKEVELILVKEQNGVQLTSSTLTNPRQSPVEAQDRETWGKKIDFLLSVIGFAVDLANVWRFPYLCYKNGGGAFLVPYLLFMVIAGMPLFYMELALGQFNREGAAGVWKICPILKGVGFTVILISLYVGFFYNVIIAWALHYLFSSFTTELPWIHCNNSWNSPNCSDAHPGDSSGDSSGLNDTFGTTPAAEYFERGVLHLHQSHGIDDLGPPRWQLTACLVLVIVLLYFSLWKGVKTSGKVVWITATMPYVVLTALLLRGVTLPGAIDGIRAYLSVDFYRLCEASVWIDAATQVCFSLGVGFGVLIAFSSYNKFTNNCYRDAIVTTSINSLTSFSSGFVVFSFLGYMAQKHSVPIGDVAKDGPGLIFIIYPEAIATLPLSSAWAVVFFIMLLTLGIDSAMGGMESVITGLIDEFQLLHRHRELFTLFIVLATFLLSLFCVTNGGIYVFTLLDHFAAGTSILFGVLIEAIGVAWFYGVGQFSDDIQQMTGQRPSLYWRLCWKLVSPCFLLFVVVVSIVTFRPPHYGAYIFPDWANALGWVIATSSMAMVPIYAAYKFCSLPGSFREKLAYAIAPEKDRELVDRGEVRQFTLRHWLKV
Sequence of UniProt Q06187 (whole entry, looked up): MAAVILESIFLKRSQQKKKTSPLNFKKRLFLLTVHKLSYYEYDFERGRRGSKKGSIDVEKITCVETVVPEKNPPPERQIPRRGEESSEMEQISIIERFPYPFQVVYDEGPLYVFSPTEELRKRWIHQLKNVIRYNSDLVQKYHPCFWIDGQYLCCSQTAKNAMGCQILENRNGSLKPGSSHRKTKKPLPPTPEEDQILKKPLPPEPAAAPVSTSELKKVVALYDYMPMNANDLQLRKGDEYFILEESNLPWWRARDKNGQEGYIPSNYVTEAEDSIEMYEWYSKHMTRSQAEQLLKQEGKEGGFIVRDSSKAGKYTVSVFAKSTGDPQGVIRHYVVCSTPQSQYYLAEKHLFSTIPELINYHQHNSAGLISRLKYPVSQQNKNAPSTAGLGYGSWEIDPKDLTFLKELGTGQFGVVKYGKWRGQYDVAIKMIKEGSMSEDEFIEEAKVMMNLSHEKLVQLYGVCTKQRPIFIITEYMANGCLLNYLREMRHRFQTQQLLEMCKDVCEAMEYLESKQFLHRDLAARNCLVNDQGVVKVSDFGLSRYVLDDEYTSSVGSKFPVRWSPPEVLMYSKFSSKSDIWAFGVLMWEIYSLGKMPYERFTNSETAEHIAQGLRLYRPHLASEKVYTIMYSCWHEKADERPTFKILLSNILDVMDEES

Block 1
Target: vanadate, free oxyanion
Technique: microfluidic competitive inhibition
Matrix: in vitro, cell-free expressed
Tested at: not given
Notes: derived from inhibition constants, unchanged parent 676 nM
Direction: lower = stronger binding
Starting sequence: PafA, mature enzyme, eGFP fusion (Elizabethkingia meningoseptica, UniProt Q9KJX5); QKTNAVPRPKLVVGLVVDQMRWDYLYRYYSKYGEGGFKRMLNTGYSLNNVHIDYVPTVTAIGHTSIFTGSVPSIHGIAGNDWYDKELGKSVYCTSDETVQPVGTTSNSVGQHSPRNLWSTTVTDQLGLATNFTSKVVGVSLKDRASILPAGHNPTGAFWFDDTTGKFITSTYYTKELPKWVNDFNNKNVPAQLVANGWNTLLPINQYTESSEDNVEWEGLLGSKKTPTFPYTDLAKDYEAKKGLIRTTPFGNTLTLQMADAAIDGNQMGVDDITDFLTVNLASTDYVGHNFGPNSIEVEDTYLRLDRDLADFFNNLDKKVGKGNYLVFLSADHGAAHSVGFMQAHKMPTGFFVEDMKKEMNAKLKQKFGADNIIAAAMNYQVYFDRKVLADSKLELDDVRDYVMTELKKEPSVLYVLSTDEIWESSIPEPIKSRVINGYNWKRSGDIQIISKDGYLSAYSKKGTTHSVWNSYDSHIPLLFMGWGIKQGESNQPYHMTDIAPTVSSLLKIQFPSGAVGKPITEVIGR
`Q192G`: “oxyanion analog dissociation constant” 716 nM.
For `P493V`, “oxyanion analog dissociation constant” read 776 nM.
`Q111G`: “oxyanion analog dissociation constant” 629 nM.
`I431V` — result for “oxyanion analog dissociation constant”: 787 nM.
`A376V`: “oxyanion analog dissociation constant” 541 nM.
`Y26G` — result for “oxyanion analog dissociation constant”: 660 nM.
`M378V`: “oxyanion analog dissociation constant” 688 nM.
For `T68V`, “oxyanion analog dissociation constant” read 580 nM.

Block 2
Target: CCNB2, cyclin fold, Cln2 fusion (human)
Technique: yeast growth competition, sequencing
Matrix: yeast
Notes: strong parent motif
Relative to: not given
Direction: higher = stronger binding
Starting sequence: viral docking peptide; YKVKRRLVFGADD; partner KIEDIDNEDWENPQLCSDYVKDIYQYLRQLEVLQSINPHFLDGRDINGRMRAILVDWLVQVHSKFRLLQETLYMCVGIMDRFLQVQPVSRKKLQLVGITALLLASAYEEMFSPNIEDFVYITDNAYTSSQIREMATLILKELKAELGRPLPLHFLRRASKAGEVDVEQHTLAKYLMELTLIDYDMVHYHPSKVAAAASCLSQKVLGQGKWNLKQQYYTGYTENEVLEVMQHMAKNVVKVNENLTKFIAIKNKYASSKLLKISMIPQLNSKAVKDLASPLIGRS
For `V3C`, “normalised enrichment score” read 0.717.
For `D12T`, “normalised enrichment score” read 1.2.
`V8G` — result for “normalised enrichment score”: -0.0388.
Under “normalised enrichment score”, `K2H` is recorded as 1.95.
`F9C` — result for “normalised enrichment score”: 0.779.
Under “normalised enrichment score”, `R6P` is recorded as -0.212.
Under “normalised enrichment score”, `V8Y` is recorded as 2.08.
`V3R` — result for “normalised enrichment score”: 0.703.

Mixed results
For CNC(=O)c1cc(C(=O)N[C@H]2[C@@H]3COC[C@@H]32)cc2c1O[C@@H](CF)[C@@H]2c1ccccc1, the inhibition was -18.8% (SLC6A3 (Homo sapiens, UniProt Q01959); binding, radioligand binding; 10 µM).
For N/C(=N\[N+](=O)[O-])N/N=C\c1ccc(-c2cccc([N+](=O)[O-])c2)o1, the remaining activity was 110% (BTK (Homo sapiens, UniProt Q06187); enzyme activity, inhibitor; 0.5 µM; relative to: control).

For quick reference, copied from above (block 2):
Under “normalised enrichment score”, `K2H` is recorded as 1.95.
For `D12T`, “normalised enrichment score” read 1.2.
